Assay results of several laboratories.
Lines come from different studies, so protocols differ. ± gives the spread as reported.

| Compound | assay | system | setting | scale | measurement | value |
| --- | --- | --- | --- | --- | --- | --- |
| CCCCCCCCCCCCCCCCCC[N+](C)(C)CCCCCCCCCCCCCCCCCC | in vitro-in vivo extrapolation | human |  |  | hepatic clearance | 0.159 mL/h/g liver |
| CC(C)[C@H](NC(=O)[C@@H]1CCCN1C(=O)[C@H](CCCNC(=N)N)NC(=O)[C@H](CO)NC(=O)[C@H](CCCCN)NC(=O)[C@H](C)NC(=O)[C@H](Cc1c[nH]cn1)NC(=O)CNC(=O)[C@H](CCCNC(=N)N)NC(=O)[C@H](CCCCN)NC(=O)[C@@H](NC(=O)[C@H](CO)NC(=O)[C@H](Cc1c[nH]cn1)NC(=O)[C@@H](NC(=O)CNC(=O)[C@H](CCC(=O)O)NC(=O)[C@H](Cc1c[nH]cn1)NC(=O)[C@H](CC(=O)O)NC(=O)[C@H](C)NC(=O)[C@H](CCC(=O)O)NC(=O)[C@H](CO)NC(=O)CNC(=O)[C@H](C)NC(=O)[C@H](CCC(=O)O)NC(=O)[C@@H](N)CC(=O)O)[C@@H](C)O)[C@@H](C)O)C(=O)O | LC-MS/MS | human serum | concentration not given, 4 h, room temperature, tube without gel separator | reference: initial concentration | change in serum concentration | -19 ± 12% |
| CN1CCC(Nc2ncc3ncnc(Nc4ccc(F)c(Cl)c4)c3n2)CC1 |  | Sprague-Dawley rat, male, liver S9 without NADPH | 1 µM, pH 7.4 |  | intrinsic clearance | 19 ± 3.17 mL/min/kg |
| CN[C@@](C)(C[18F])C(=O)O |  | SCID mouse MDA-MB-468 xenograft, kidney | 120 min, post injection |  | tissue uptake | 3.6 ± 0.4 %ID/g |
| C=CCc1cccc(/C=N/NC(=O)CN2CCN(Cc3ccccc3)CC2)c1O |  | healthy dog, plasma | IV constant rate infusion, dose not given, 48 h, time with plasma level ≥ 6-h concentration |  | duration above reference concentration | ~36 h |
| CN(C)C(=O)C(CCN1CCC(O)(c2ccc(Cl)cc2)CC1)(c1ccccc1)c1ccccc1 |  | rat | no efflux inhibition |  | log intrinsic permeability | -3.64 |
| O[C@H]1CCCN[C@@H]1CCCn1cnc2c(Cl)c(Cl)ccc21 |  | human, plasma | oral, 100 mg single dose, capsule, geometric mean |  | mean residence time | 9.26 h |
| [123I]c1cncc(OC[C@@H]2CCN2)c1 | SPECT | human, fusiform gyrus | intravenous bolus, 2.1 mCi | reference: tissue over plasma | tissue/plasma ratio | 11.2 |
| Cc1cnc(C(=O)N[C@H]2CCCCC/C=C\[C@@H]3C[C@@]3(C(=O)NS(=O)(=O)C3CC3)NC(=O)[C@@H]3C[C@@H](Oc4nc5ccccc5c5ccccc45)CN3C2=O)cn1 |  | healthy human volunteers, plasma | oral, dose not given, added: rosuvastatin plus 2D regimen |  | AUC(0-24) | 2450 ng·h/mL |
| CCCCCCCCCCCC(=O)NCCCC[C@H](NC(=O)[C@@H](NC(=O)[C@@H](NC(=O)[C@H](C)NC(=O)[C@H](C)NC(=O)[C@H](CCCCN)NC(=O)[C@H](CCCCN)NC(=O)[C@H](CS)NC(=O)[C@H](CCCCN)NC(=O)[C@@H]1CCCN1C(=O)[C@H](CC(C)C)NC(=O)[C@@H](NC(=O)[C@H](Cc1c[nH]c2ccccc12)NC(=O)[C@H](CC(C)C)NC(=O)[C@@H](N)CCCCN)C(C)C)C(C)C)C(C)C)C(N)=O | LC-MS/MS | rat whole blood | 250 ng/mL, 0 to 180 min, 37 °C |  | recovery | 15% |
| CCCCCOc1ccc(-c2ccc(-c3ccc(C(=O)N[C@H]4C[C@@H](O)[C@@H](O)NC(=O)[C@@H]5[C@@H](O)[C@@H](C)CN5C(=O)[C@H]([C@@H](C)O)NC(=O)[C@H]([C@H](O)[C@@H](O)c5ccc(O)cc5)NC(=O)[C@@H]5C[C@@H](O)CN5C(=O)[C@H]([C@@H](C)O)NC4=O)cc3)cc2)cc1 | population PK model | patients, typical weight sample D kg | intravenous, dose not given |  | peripheral volume of distribution | 22.4 L |
| CC(=O)N[C@H](CCCCNC(=O)C(C)F)C(=O)N[C@@H](CS)C(=O)N[C@@H](CS)C(=O)N[C@@H](CCC(=O)O)C(=O)N[C@@H](Cc1c[nH]cn1)C(=O)N[C@H](Cc1ccccc1)C(=O)N[C@@H](CCCNC(=N)N)C(=O)N[C@@H](Cc1c[nH]c2ccccc12)C(=O)N[C@@H](CS)C(=O)N[C@@H](CCCNC(=N)N)C(=O)N1CCC[C@H]1C(=O)N[C@H](C(N)=O)C(C)C (stereo partly drawn) [fluorine-18 labelled] |  | C57BL/6 mice, male, B16-F10 tumour, kidney | intravenous, 4 h |  | tissue uptake | 4.41 ± 0.78 %ID/g |

Some of these lines once more:
| Compound | assay | system | setting | scale | measurement | value |
| --- | --- | --- | --- | --- | --- | --- |
| CCCCCOc1ccc(-c2ccc(-c3ccc(C(=O)N[C@H]4C[C@@H](O)[C@@H](O)NC(=O)[C@@H]5[C@@H](O)[C@@H](C)CN5C(=O)[C@H]([C@@H](C)O)NC(=O)[C@H]([C@H](O)[C@@H](O)c5ccc(O)cc5)NC(=O)[C@@H]5C[C@@H](O)CN5C(=O)[C@H]([C@@H](C)O)NC4=O)cc3)cc2)cc1 | population PK model | patients, typical weight sample D kg | intravenous, dose not given |  | peripheral volume of distribution | 22.4 L |
| CC(=O)N[C@H](CCCCNC(=O)C(C)F)C(=O)N[C@@H](CS)C(=O)N[C@@H](CS)C(=O)N[C@@H](CCC(=O)O)C(=O)N[C@@H](Cc1c[nH]cn1)C(=O)N[C@H](Cc1ccccc1)C(=O)N[C@@H](CCCNC(=N)N)C(=O)N[C@@H](Cc1c[nH]c2ccccc12)C(=O)N[C@@H](CS)C(=O)N[C@@H](CCCNC(=N)N)C(=O)N1CCC[C@H]1C(=O)N[C@H](C(N)=O)C(C)C (stereo partly drawn) [fluorine-18 labelled] |  | C57BL/6 mice, male, B16-F10 tumour, kidney | intravenous, 4 h |  | tissue uptake | 4.41 ± 0.78 %ID/g |
